Results of several laboratories.
Protocols differ between the studies behind these lines. Numbers after ± are the reported error.

Structure (SMILES) | assay | test system | conditions | scale | Tmax
CC1=C(c2cccc(O)c2)[C@H](c2ccc(OCCN3CC(CF)C3)cc2)Oc2ccc(O)cc21 |  | human, plasma | oral, 1000 mg single dose, median |  | 1.5 h
CC(C)n1c(/C=C/C(O)CC(O)CC(=O)O)c(-c2ccc(F)cc2)c2ccccc21 (centres unmarked) |  | human | oral, 20 mg, alone, control phase |  | 1.2 ± 0.62 h
C#C[C@]1(O)CC[C@H]2[C@@H]3CCC4=CC(=NO)CC[C@@H]4[C@H]3CC[C@@]21CC (mixture of isomers) |  | human |  |  | 3 h
Cc1cc(-c2nnc(N)nc2-c2ccc(F)cc2)cc(Cl)n1 |  | human patients, plasma | oral, 150 mg capsule once daily, multiple doses, median |  | 3 h
CC(C)[C@H](N)C(=O)NCCCS(=O)(=O)O | median | human, plasma | oral, 171 mg once daily, day 1, fasted, capsule |  | 0.5 h
CN(CC#N)C(=O)C[C@H](Nc1nc2ccccc2[nH]1)c1cccc(C(F)(F)F)c1 |  | human | intravenous infusion, 2 mg/kg, 1 mg/mL formulation |  | 0.48 h
Cc1cn(C(=O)c2c(-c3c(Cl)cc(Cl)cc3Cl)noc2C(C)(C)F)c2cccc(/C=C/C(=O)O)c12 |  | human patients | 250 mg bid, cycle 1 day 1 |  | 3.95 h
C[C@H]1[C@H](OC(=O)CCC(=O)O)O[C@@H]2O[C@@]3(C)CC[C@H]4[C@H](C)CC[C@@H]1[C@@]24OO3 |  | human, both sexes, plasma | oral, dose not given, fixed-dose combination |  | 0.26 h
N[C@](CO)(CCc1ccc(Sc2cccc(OCc3ccccc3)c2)cc1Cl)COP(=O)(O)O |  | human fasted, blood | 3 mg MOC, together with: cyclosporin 100 mg b.i.d. |  | 6 h
Cc1ccc(C)c(OCCCC(C)(C)C(=O)O)c1 |  | human, plasma | oral, 600 mg, before lopinavir/ritonavir, geometric mean |  | 1.4 h
CCCCCCCCCCCCCCCC(=O)N[C@@H](CCC(=O)NCCCC[C@@H]1NC(=O)[C@H]([C@@H](C)CC)NC(=O)[C@@H](NC(=O)[C@@H]2CCCN2C(=O)[C@H](Cc2ccccc2)NC(=O)[C@H](Cc2c[nH]cn2)NC(=O)[C@@H](NC(=O)[C@H](CC(=O)O)NC(=O)CC(C)C)[C@@H](C)O)CSSC[C@@H](C(=O)N[C@@H](CCCCN)C(N)=O)NC(=O)CNC(=O)[C@H](CCCCN)NC(=O)[C@H](CO)NC(=O)[C@H](CCCNC(=N)N)NC(=O)[C@@H]2CCCN2C(=O)[C@H](CCC(=O)O)NC(=O)[C@H](Cc2ccccc2)NC1=O)C(=O)O |  | healthy human, plasma | subcutaneous, 20 mg, aqueous formulation |  | 1 h
NC(=O)N1c2ccccc2C=Cc2ccccc21 |  | healthy human subjects, plasma | oral, day 20, twice daily, alone, median |  | 4 h
Cc1nc(-c2ccc(OCC(C)C)c(C#N)c2)sc1C(=O)O |  | human | oral, 20 mg once daily, together with: verinurad 0 mg |  | 3 h
C#C[C@]1(COP(=O)(O)OP(=O)(O)O)O[C@@H](n2cnc3c(N)nc(F)nc32)C[C@@H]1O | item: islatravir triphosphate | human, PBMC | oral, 30 mg single dose |  | 12 h
N#CCNC(=O)c1ccc(-c2ccnc(Nc3ccc(N4CCOCC4=O)cc3)n2)cc1 |  | healthy human volunteers, plasma | 100 mg momelotinib once daily, day 7, fed, momelotinib alone |  | 2.5 h
C#C[C@]1(CO)O[C@@H](n2cnc3c(N)nc(F)nc32)C[C@@H]1O |  | human, plasma | oral, 400 mg, single dose, median |  | 0.5 h
Cc1noc(C)c1-c1cc(C(O)(c2ccccn2)c2ccccn2)c2nc(C3CC3)[nH]c2c1 |  | human patients, plasma | oral, 4 mg, cycle 1 day 8, monotherapy |  | 0.9 h
CC(C)NC(=O)COc1cccc(-c2nc(Nc3ccc4[nH]ncc4c3)c3ccccc3n2)c1 |  | human male, plasma | oral, 200 mg, day 6, fed, alone, median |  | 2 h
COc1cc(-c2cnc3cc(OCCN4CCOCC4)ccn23)cc2c1C(=O)N(CC(F)(F)F)CC2 | LC-MS | human, plasma | oral, 350 mg, day 5, together with: methotrexate 7.5 mg |  | 0.5 h
CCS(=O)(=O)Nc1ccc(Oc2ccc(F)cc2F)c(-c2cn(C)c(=O)c3[nH]ccc23)c1 |  | human, plasma | oral, 2.5 mg, cycle 1 day 8, median |  | 3 h
COc1ccc2[nH]c([S@+]([O-])Cc3ncc(C)c(OC)c3C)nc2c1 |  | human, dried blood spots | oral, 10 mg omeprazole |  | 2 h
CC(F)(F)c1cc(F)ccc1-c1sc2cc(O)ccc2c1Oc1ccc(/C=C/C(=O)O)cc1 |  | human patients, serum | oral, 300 mg once daily, cycle 1 day 28, regular meal, median, together with: alpelisib |  | 2.1 h
CN(C)C(=O)c1cc2cnc(Nc3ccc(N4CCNCC4)cn3)nc2n1C1CCCC1 |  | human, end-stage renal disease, plasma | oral, 400 mg, single dose, median |  | 2.98 h
C[C@H](NC(=O)/C(C#N)=C/c1cccc(Br)n1)c1ccccc1 | LC-MS/MS | human, plasma | oral, 2 mg/kg, cycle 1 day 8 |  | 2 h
O=C(c1cc(Cc2n[nH]c(=O)c3ccccc23)ccc1F)N1CCN(C(=O)C2CC2)CC1 |  | human, female, plasma | oral, 250 mg |  | 1 h
Fc1ccc([C@@H]2CCNC[C@H]2COc2ccc3c(c2)OCO3)cc1 |  | human, all CYP2D6 genotypes | oral, 20 mg, steady state, geometric mean |  | 4.3 h
Cl.[2H]C([2H])([2H])CC(=O)c1cnc(NC(=O)C2CC2)cc1Nc1cccc(-c2ncn(C([2H])([2H])[2H])n2)c1OC | median | human | oral, 100 mg single dose, fasted, liquid |  | 1 h

Structure (SMILES) | assay | test system | conditions | scale | Tmax
CCNCCCNC/C=C\CNCCCNCC | LC-MS/MS | human cancer patients, plasma | intravenous infusion 60 min, 200 mg, median, cycle 1 |  | 0.75 h
Cc1ncnc2c1ccn2[C@@H]1C[C@H](Oc2cc(C(F)F)c(F)c3c2CNCC3)[C@@H](O)[C@H]1O |  | human | oral, 6 mg twice daily |  | 1 h
C[C@H](Oc1ccc(Br)cc1-c1ccon1)C(=O)O |  | healthy male humans, plasma | oral, 400 mg twice daily, day 1, median |  | 8 h
CC(C)=CCC/C(C)=C/CC/C(C)=C/CC[C@@](C)(O)CCC1=C(C)C(=O)C(C)=C(C)C1=O |  | human, plasma | oral, 400 mg, together with: itraconazole 200 mg | relative to: without itraconazole | no effect
C[C@@H](N)c1cc(Cl)ccc1Cn1c(=S)[nH]c(=O)c2[nH]ccc21 |  | human, both sexes, matched healthy controls, plasma | oral, 2.5 mg single dose, median |  | 1.75 h
Cc1cc(Nc2cc3ncccc3c(N[C@@H]3C[C@H]4CC[C@@H](C3)N4CCC#N)n2)n[nH]1 |  | human, plasma | 30 mg single dose, median |  | 0.79 h
COc1c(OCCCN2CCOCC2=O)ccc2c3n(c(=NC(=O)c4cnc(N)nc4)nc12)CCN3 |  | human, plasma | 0.8 mg/kg of copanlisib, cycle 1 day 1, median, together with: gemcitabine |  | 4 h
CC1(COc2ccc3c(c2)ncn3-c2ccc3cccc(N4CCC(N)CC4)c3n2)COC1 |  | human patients, recurrent/progressive HGG or DIPG, serum | oral, 170 mg/m^2, day 1, median |  | 4 h
CCCCCCCOc1ccc(CCC(N)(CO)CO)cc1C(F)(F)F.Cl |  | healthy human males, plasma | 0.25 mg, day 21, median |  | 10 h
C#C[C@]1(COP(=O)(O)O)O[C@@H](n2cnc3c(N)nc(F)nc32)C[C@@H]1O | item: islatravir triphosphate | human, PBMC | oral, 30 mg single dose |  | 6 h
N#CCC1CCN(c2nc(Nc3ccc(N4CCC(O)CC4)cc3)c3c(=O)[nH]ncc3n2)CC1 | LC-MS/MS | human, plasma | oral, 80 mg once daily, day 1, median |  | 2 h
Cc1cc(-c2nccc3c2ccn3CC(=O)Nc2ccc(-c3cnccn3)cn2)ccn1 |  | human, plasma | oral, 40 mg single dose, median |  | 1 h
CC1(C)CC[C@]2(NC(=O)C(C)(F)F)CC[C@]3(C)[C@H](C(=O)C=C4[C@@]5(C)C=C(C#N)C(=O)C(C)(C)[C@@H]5CC[C@]43C)[C@@H]2C1 | median | human, plasma | oral, 150 mg single dose, given alone |  | 14.3 h
COc1nnc2ccc(N3CCC(c4ccc(OCCN5CCN(C)C(=O)[C@H]5C)cc4)CC3)nn12 |  | human, plasma | oral, 10 mg once daily, single dose, monotherapy |  | 2.98 h
CO[C@@H]1[C@H](OC(=O)N2CC(CCN3CCOCC3)C2)CC[C@]2(CO2)[C@H]1[C@@]1(C)O[C@@H]1CC=C(C)C |  | humans, plasma | subcutaneous, 1.8 mg twice weekly, fifth dose |  | 0.26 h
Cn1ncnc1[C@H]1c2n[nH]c(=O)c3cc(F)cc(c23)N[C@@H]1c1ccc(F)cc1 |  | human patients, plasma | oral, 600 µg/m2 twice daily day 1, day 5, dose level DL6, median, together with: temozolomide 55 mg/m2 daily days 2-6 |  | 1 h
COc1cc2ncnc(Nc3ccc(F)c(Cl)c3)c2cc1NC(=O)/C=C/CN1CCCCC1 |  | human, plasma | oral, 30 mg single dose |  | 6 h
COc1cc(N2CCC(N3CCN(C)CC3)CC2)ccc1Nc1ncnc(Nc2ccccc2S(=O)(=O)C(C)C)n1 | LC-MS/MS | human, dose escalation, plasma | oral, 25 mg, day 1 |  | 2.95 h
COc1ccc([C@@H](O)c2cc(-c3ncnc4cc(N5CCOCC5)ccc34)c(F)cc2Cl)nn1 | plasma pharmacokinetics | human | oral, 250 mg capecitabine, single dose, median |  | 2.43 h
COc1ncc(-c2nc3c(n2C(C)C)[C@H](c2ccc(Cl)cc2)N(c2cc(Cl)cn(C)c2=O)C3=O)c(OC)n1 | LC-MS/MS, noncompartmental | human, plasma | oral, 150 mg, C1D8, high-dose, median |  | 2 h
COc1ccc2c3c1O[C@H]1C[C@@H](OC(=O)c4ccccc4)C=C[C@@]31CCN(C)C2 |  | human, plasma | intranasal, 33 mg single dose |  | 0.5 h
N#Cc1cc(NC(=O)[C@H]2c3ccccc3C(=O)N(CC(F)(F)F)[C@@H]2c2cccnc2)ccc1F |  | human, plasma | oral, 600 mg, fed, median, interim |  | 3.4 h
COc1ccc([C@@H](O)c2cc(-c3ncnc4cc(N5CCOCC5)ccc34)c(F)cc2Cl)nn1 |  | healthy human volunteers, plasma | oral, 100 mg single dose, tablet, fed high-fat, median |  | 3.5 h
CC(=O)O.NC(=O)c1cnc(N[C@@H]2CCCC[C@@H]2N)nc1Nc1cccc(-n2nccn2)c1 |  | human, plasma | oral, 11 mg once daily |  | 1 h
CNC(=O)c1ccc(-c2cnc3ncc(Cc4ccc5ncccc5c4)n3n2)cc1F |  | human, plasma | oral, 200 mg, median |  | 1.25 h
COc1cc([C@H]2Oc3cc([C@H]4Oc5cc(O)cc(O)c5C(=O)[C@@H]4O)ccc3O[C@@H]2CO)ccc1O |  | OATP1B1/1B3 humanized mice, plasma | oral gavage, 500 mg/kg silymarin, median |  | 0.25 h

A few entries again:
Structure (SMILES) | assay | test system | conditions | scale | Tmax
C#C[C@]1(O)CC[C@H]2[C@@H]3CCC4=CC(=NO)CC[C@@H]4[C@H]3CC[C@@]21CC (mixture of isomers) |  | human |  |  | 3 h
COc1ccc([C@@H](O)c2cc(-c3ncnc4cc(N5CCOCC5)ccc34)c(F)cc2Cl)nn1 |  | healthy human volunteers, plasma | oral, 100 mg single dose, tablet, fed high-fat, median |  | 3.5 h
CC(=O)O.NC(=O)c1cnc(N[C@@H]2CCCC[C@@H]2N)nc1Nc1cccc(-n2nccn2)c1 |  | human, plasma | oral, 11 mg once daily |  | 1 h
